Results gathered from unrelated publications.
Compare with care: the assays were run in different laboratories.
Cell line: Calu-3

| SMILES | assay | setting | measurement | value |
| --- | --- | --- | --- | --- |
| CO/C1=C\C(C)=C\[C@@H](C)[C@@H](O)[C@@H](C)C/C(C)=C/C=C/[C@H](OC)[C@@H]([C@@H](C)[C@@H](O)[C@H](C)C(=O)/C=C/[C@H](C)[C@H](O)C(C)C)OC1=O | cell growth or viability, resazurin | 48 h | CC50 | 43 µM |
| Nc1nccnc1C(=O)Nc1nc2ccc(OC(F)(F)F)cc2s1 | ATP content | 48 (unit not given) | IC50 | 2.24 µM |
| CC(=O)OC1(C)CC(C=C(C)CCC=C(C)C)OC2(C=C(CO)C3CC(=O)C(C)=CC3O2)C1 (centres unmarked) | cell growth or viability, resazurin | 48 h | CC50 | > 100 µM |
| C[C@H]1[C@H](OC(=O)CC[C@@H](C)C2CCC3C4C(CC[C@@]32C)[C@@]2(C)CC[C@@H](O)CC2C[C@@H]4O)O[C@@H]2O[C@@]3(C)CCC4[C@H](C)CC[C@@H]1[C@]42OO3 (some centres unmarked) |  | up to 20 µM | cytotoxicity | not toxic |
| O=C1C(O)=C(Nc2cccc(C(F)(F)F)c2)C(=O)c2ccccc21 | cell growth or viability | 72 h | CC50 | 48 µM |
| COC(=O)CC[C@@H](C)C1CCC2C3C(CC[C@@]21C)[C@@]1(C)CC[C@@H](n2cc(CO[C@H]4O[C@@H]5O[C@@]6(C)CCC7[C@H](C)CC[C@@H]([C@H]4C)[C@]75OO6)nn2)CC1C[C@@H]3O (some centres unmarked) |  | up to 20 µM | cytotoxicity | not toxic |
| O=C1C(O)=C(Nc2ccc(F)cc2)C(=O)c2ccccc21 | cell growth or viability | 72 h | CC50 | 67 µM |
| CCN(c1nc(N)c(C(=O)NC(=N)N)nc1Cl)C(C)C | ATP content | 48 (unit not given) | IC50 | > 30 µM |

Some of these lines once more:
| SMILES | assay | setting | measurement | value |
| --- | --- | --- | --- | --- |
| CC(=O)OC1(C)CC(C=C(C)CCC=C(C)C)OC2(C=C(CO)C3CC(=O)C(C)=CC3O2)C1 (centres unmarked) | cell growth or viability, resazurin | 48 h | CC50 | > 100 µM |
